Published values gathered from unrelated publications.
Values joined by “and” are separate records of one study, mostly repeats; a detail may differ. Numbers after ± are the reported error.
Carbonic anhydrase: Carbonic anhydrase (Vibrio cholerae serotype O1, UniProt Q9KMP6)
Sequence of UniProt P41143 (whole entry, unmodified, looked up): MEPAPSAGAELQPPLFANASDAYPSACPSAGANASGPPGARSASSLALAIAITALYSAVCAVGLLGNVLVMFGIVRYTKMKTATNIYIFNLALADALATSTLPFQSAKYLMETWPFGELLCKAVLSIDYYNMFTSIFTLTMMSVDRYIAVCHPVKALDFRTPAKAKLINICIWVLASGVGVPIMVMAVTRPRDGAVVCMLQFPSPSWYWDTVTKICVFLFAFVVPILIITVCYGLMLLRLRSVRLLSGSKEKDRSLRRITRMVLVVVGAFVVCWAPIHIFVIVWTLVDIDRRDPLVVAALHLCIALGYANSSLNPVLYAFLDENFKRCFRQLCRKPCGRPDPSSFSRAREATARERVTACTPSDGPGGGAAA
Sequence of UniProt P41595 (whole entry, looked up): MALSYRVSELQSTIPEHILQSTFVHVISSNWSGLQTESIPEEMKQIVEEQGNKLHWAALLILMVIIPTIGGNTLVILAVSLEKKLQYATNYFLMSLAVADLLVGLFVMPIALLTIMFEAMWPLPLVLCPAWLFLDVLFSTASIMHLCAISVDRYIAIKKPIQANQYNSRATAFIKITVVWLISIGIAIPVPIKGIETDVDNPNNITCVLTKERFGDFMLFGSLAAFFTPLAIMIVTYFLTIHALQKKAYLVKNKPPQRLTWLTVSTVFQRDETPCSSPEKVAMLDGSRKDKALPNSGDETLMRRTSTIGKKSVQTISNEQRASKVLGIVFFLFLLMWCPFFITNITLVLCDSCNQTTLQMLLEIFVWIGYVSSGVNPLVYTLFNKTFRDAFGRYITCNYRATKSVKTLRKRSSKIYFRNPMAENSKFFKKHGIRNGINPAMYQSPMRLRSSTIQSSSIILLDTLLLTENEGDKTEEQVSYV
Sequence of UniProt P50750 (whole entry, looked up): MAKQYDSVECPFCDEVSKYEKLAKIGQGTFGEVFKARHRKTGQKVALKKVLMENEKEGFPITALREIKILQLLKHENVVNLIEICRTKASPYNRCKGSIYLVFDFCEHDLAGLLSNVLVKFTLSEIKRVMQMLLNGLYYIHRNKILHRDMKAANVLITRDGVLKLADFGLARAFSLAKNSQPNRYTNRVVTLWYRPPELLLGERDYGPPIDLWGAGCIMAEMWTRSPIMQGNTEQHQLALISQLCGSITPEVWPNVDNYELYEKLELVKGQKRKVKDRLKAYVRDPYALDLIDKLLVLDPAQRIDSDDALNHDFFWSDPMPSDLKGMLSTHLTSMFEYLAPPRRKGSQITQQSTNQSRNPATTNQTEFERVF

Structure (SMILES)	tested on	test	test system	setting	how to read	quantity	result
CN(C)[C@H]1C[C@@]23CC[C@@]4(O2)C(=CC[C@]2(C)[C@@H](c5ccc6ccncc6c5)CC[C@H]24)C=C3[C@@H](O)[C@@H]1O	Cyclin-dependent kinase 9 (CDK9, Homo sapiens, UniProt P50750)	ATP probe labelling, inhibitor, KiNativ profiling	–	1 µM	–	inhibition	1.1%
O=c1ccn([C@@H]2O[C@H](COP(=O)(O)OP(=O)(O)O)[C@@H](O)[C@H]2O)c(=O)[nH]1	toxin B, glucosyltransferase domain (Clostridioides difficile, UniProt A0A9R0CDJ3)	–	–	–	–	Ki	22600 ± 600 nM
CCN(CC)C(=O)c1ccc(C(c2cccc(O)c2)N2CC(C)N(Cc3ccccc3)CC2C)cc1 (stereo not drawn)	Delta-type opioid receptor (OPRD1, Homo sapiens, UniProt P41143, M132A)	–	–	–	–	Ki	1.47 ± 0.08 nM
COC(=O)C(=O)[C@H](CC(C)C)NC(=O)[C@H](CCCCN)NC(=O)[C@H](Cc1ccccc1)NC(=O)OCc1ccccc1	hip1, N-terminally truncated (Mycobacterium tuberculosis, UniProt P9WHR3)	inhibitor	–	–	–	Ki	0.089 nM and 0.093 nM and 0.09 nM
CC(C)(C)C(=O)OCOP(=O)(OCOC(=O)C(C)(C)C)C1CCCN(O)C1=O (stereo not drawn)	LOX IMVI	cell growth	–	–	–	TGI	12300 nM
CCCCCCCCCCCC(=O)NC1CCOC1=O (stereo not drawn)	Carbonic anhydrase	enzyme activity, inhibitor, stopped-flow	–	–	–	Ki	> 100000 nM
O=C1NC2(CC2)COc2ncc(F)cc2[C@H]2COCCN2c2ccn3ncc1c3n2	–	–	Sprague-Dawley rat, female, ovaries	oral, 10 mg/kg/day, 4 weeks dosing, end of recovery	–	organ-to-brain weight ratio	5.44 ± 1%
CC[C@H](C)[C@H](NC(=O)[C@@H]1CCCN1C(=O)[C@H](CCC(=O)O)NC(=O)[C@H](CCSC)NC(=O)CNC(=O)[C@H](CC(N)=O)NC(=O)CNC(=O)CNC(=O)[C@H](CCC(=O)O)NC(=O)CNC(=O)[C@H](CCCNC(=N)N)NC(=O)[C@H](CCC(N)=O)NC(=O)[C@H](Cc1ccc(O)cc1)NC(=O)[C@H](CC(C)C)NC(=O)[C@H](CCCCN)NC(=O)[C@@H]1CCCN1C(=O)[C@H](CCC(N)=O)NC(=O)[C@H](C)NC(=O)[C@@H](NC(=O)[C@H](CCC(=O)O)NC(=O)[C@H](C)NC(=O)[C@H](CCC(=O)O)NC(=O)[C@@H](NC(=O)[C@@H]1CCCN1C(=O)[C@@H](N)CCCCN)C(C)C)C(C)C)C(=O)N1CCC[C@H]1C(=O)N[C@@H](CCC(=O)O)C(=O)N[C@@H](CC(=O)O)C(=O)N[C@@H](Cc1ccc(O)cc1)C(=O)N[C@@H](CC(C)C)C(=O)N[C@@H](CCC(N)=O)C(=O)O	Prothrombin, gamma-thrombin (F2, Homo sapiens, UniProt P00734)	–	–	pH 8	–	Ki	59800 ± 3210 nM
COc1ccccc1-c1n[nH]c2nc(NC3CCN(C(=O)Cc4ccc(F)cc4F)CC3)ncc12	–	bead binding, competition bead pull-down, measured: LINJ.30.3480	Leishmania donovani axenic amastigote extract	10 µM	relative to: vehicle	relative abundance	0.99
CC[C@H](C)[C@H](NC(=O)[C@@H]1CCCN1C(=O)[C@H](CCC(=O)O)NC(=O)[C@H](CCSC)NC(=O)CNC(=O)[C@H](CC(N)=O)NC(=O)CNC(=O)CNC(=O)[C@H](CCC(=O)O)NC(=O)CNC(=O)[C@H](CCCNC(=N)N)NC(=O)[C@H](CCC(N)=O)NC(=O)[C@H](Cc1ccc(O)cc1)NC(=O)[C@H](CC(C)C)NC(=O)[C@H](CCCCN)NC(=O)[C@@H]1CCCN1C(=O)[C@H](CCC(N)=O)NC(=O)[C@H](C)NC(=O)[C@@H](NC(=O)[C@H](CCC(=O)O)NC(=O)[C@H](C)NC(=O)[C@H](CCC(=O)O)NC(=O)[C@@H](NC(=O)[C@@H]1CCCN1C(=O)[C@@H](N)CCCCN)C(C)C)C(C)C)C(=O)N1CCC[C@H]1C(=O)N[C@@H](CCC(=O)O)C(=O)N[C@@H](CC(=O)O)C(=O)N[C@@H](Cc1ccc(O)cc1)C(=O)N[C@@H](CC(C)C)C(=O)N[C@@H](CC(=O)O)C(=O)N[C@@H](CC(=O)O)C(=O)N[C@@H](CCC(=O)O)C(=O)N[C@@H](CO)C(=O)O	Prothrombin (F2, Homo sapiens, UniProt P00734)	enzyme activity, inhibitor, absorbance	–	pH 8	–	Ki	0.0839 nM
CCCCC1CCC(=O)O1 (stereo not drawn)	Carbonic anhydrase	enzyme activity, inhibitor, stopped-flow	–	–	–	Ki	59600 nM
CCN(CC)C(=O)[C@@H]1C=C2c3cccc4c3c(cn4C(=O)c3ccco3)C[C@H]2N(C)C1	5-hydroxytryptamine receptor 2B (HTR2B, Homo sapiens, UniProt P41595)	ligand displacement, radioligand	–	–	–	Ki	9.8 nM

For quick reference, copied from above:
Structure (SMILES)	tested on	test	test system	setting	how to read	quantity	result
CN(C)[C@H]1C[C@@]23CC[C@@]4(O2)C(=CC[C@]2(C)[C@@H](c5ccc6ccncc6c5)CC[C@H]24)C=C3[C@@H](O)[C@@H]1O	Cyclin-dependent kinase 9 (CDK9, Homo sapiens, UniProt P50750)	ATP probe labelling, inhibitor, KiNativ profiling	–	1 µM	–	inhibition	1.1%
O=c1ccn([C@@H]2O[C@H](COP(=O)(O)OP(=O)(O)O)[C@@H](O)[C@H]2O)c(=O)[nH]1	toxin B, glucosyltransferase domain (Clostridioides difficile, UniProt A0A9R0CDJ3)	–	–	–	–	Ki	22600 ± 600 nM
